Measured values from different studies.
Protocols differ between the studies behind these lines.
Target: calf thymus DNA

COC(=O)c1cnc(-c2cnccn2)cc1C(=O)OC.COC(=O)c1cnc(-c2cnccn2)cc1C(=O)OC.[Cl-].[Cl-].[Cl-].[Cl-].[Cu+2].[Cu+2]
fluorescence quenching (ethidium bromide displacement): 28.2%

Cc1c(C)c(C)[c-](C)c1C.[C-]#[O+].[C-]#[O+].[C-]#[O+].[Cl-].[Cl-].[Cl-].[Ir+3].[Re+].c1cnc(-c2ncccn2)nc1
apparent binding constant (ethidium bromide displacement; DNA 120 µM, 50% quenching, with: ethidium bromide 8 µM): 1.6e+06 M⁻¹

CS(C)=O.CS(C)=O.[Cl][Cu][Cl].c1ccc(-c2nnc(-c3ccc4c(c3)OCO4)[nH]2)nc1
Stern-Volmer constant (GelRed displacement; room temperature): 5010 M⁻¹

CCCNCC(=O)O
bimolecular quenching rate constant (ethidium bromide displacement fluorescence; room temperature): 4.2e+10 M⁻¹ s⁻¹

Cc1ccc(C(C)C)cc1.[Cl-].[Cl][Ru+].[Ru+].c1ccc(-c2cn(CCCCOc3ccccc3-c3nc4ccccc4s3)nn2)nc1
apparent binding constant (ethidium bromide displacement; DNA 120 µM, 50% quenching, with: ethidium bromide 8 µM): 2e+06 M⁻¹

CCN(CC)CCCC(C)Nc1cc[n+]([Ru-]([OH2+])[OH2+])c2cc(Cl)ccc12.Cc1ccc(C(C)C)cc1.F[B-](F)(F)F.F[B-](F)(F)F (stereo not shown)
delta Tm (thermal denaturation; 0.5 equivalents per DNA, 1 h, pH 7.39, 25 °C, 50 mM NaClO4): 2.9 °C

[C-]#[O+].[C-]#[O+].[C-]#[O+].[C-]#[O+].[C-]#[O+].[C-]#[O+].[Cl-].[Cl-].[Re+].[Re+].c1cnc(-c2ncccn2)nc1
number of binding sites (concentration not given): 1.14

CCN(CC)CCCC(C)Nc1cc[n+]([Ru-]([Cl])[Cl])c2cc(Cl)ccc12.Cc1ccc(C(C)C)cc1 (stereo not shown)
delta Tm (thermal denaturation; 0.5 equivalents per DNA, 1 h, pH 7.39, 25 °C, 50 mM NaClO4): 4 °C

CCCCCC(C)NCC(=O)O (stereo not shown)
Stern-Volmer constant (ethidium bromide displacement fluorescence; room temperature): 280 M⁻¹

O=C1Nc2ccccc2C1=NN=Cc1ccc(F)cc1
apparent binding constant (UV-Vis titration; pH 7.2, 298 K): 20300 M⁻¹
